Published values of several laboratories.
Compare with care: the assays were run in different laboratories. “And” joins repeats or separate records; there may be more than shown. ± gives the spread as reported.
Rhomboid protease AarA: Rhomboid protease AarA (Providencia stuartii, UniProt P46116)
CASP1: Caspase-1 (CASP1, Homo sapiens, UniProt P29466)
T1: G-quadruplex RNA (Homo sapiens); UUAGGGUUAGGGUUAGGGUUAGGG
T2: Mango II RNA aptamer; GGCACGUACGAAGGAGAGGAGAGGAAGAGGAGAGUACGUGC
T3: ssRNA, hairpin with 1x1 G/G internal loops (Homo sapiens); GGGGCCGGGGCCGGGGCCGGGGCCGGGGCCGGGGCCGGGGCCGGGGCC

For `CC(C)C[C@H](NC(=O)[C@H](Cc1ccc(O)cc1)NC(=O)[C@H](CC(N)=O)NC(=O)[C@H](CO)NC(=O)CNC(=O)[C@H](Cc1ccc(O)cc1)NC(=O)[C@H](CC(=O)O)NC(=O)CNC(=O)[C@H](Cc1ccc(O)cc1)NC(=O)[C@H](Cc1ccccc1)NC(=O)[C@@H]1CCCN1C(=O)[C@H](Cc1ccccc1)NC(=O)[C@H](CCC(=O)O)NC(=O)[C@H](CCCNC(=N)N)NC(=O)[C@H](Cc1c[nH]cn1)NC(=O)[C@H](CO)NC(=O)[C@H](Cc1c[nH]cn1)NC(=O)[C@H](Cc1c[nH]cn1)NC(=O)[C@H](CCCCN)NC(=O)[C@H](CCC(=O)O)NC(=O)[C@H](Cc1c[nH]cn1)NC(=O)[C@H](Cc1ccccc1)NC(=O)[C@H](CCCCN)NC(=O)[C@H](CCCNC(=N)N)NC(=O)[C@H](CCCNC(=N)N)NC(=O)[C@H](Cc1ccc(O)cc1)NC(=O)CNC(=O)[C@H](Cc1c[nH]cn1)NC(=O)[C@H](Cc1c[nH]cn1)NC(=O)[C@H](CCCNC(=N)N)NC(=O)[C@H](CCCCN)NC(=O)[C@H](CCC(=O)O)NC(=O)[C@H](Cc1c[nH]cn1)NC(=O)[C@H](COP(=O)(O)O)NC(=O)[C@@H](N)CC(=O)O)C(=O)N[C@@H](Cc1ccc(O)cc1)C(=O)N[C@@H](CC(=O)O)C(=O)N[C@@H](CC(N)=O)C(=O)O`, the kon was 115000 M⁻¹ s⁻¹ (TMEM97 (Homo sapiens, UniProt Q5BJF2); binding, SPR; 25 °C).
Under “normalised MST signal”, `N=C(N)NCCS(=O)(=O)O` is recorded as -0.0569 (SLC6A6 (Homo sapiens, UniProt P31641, G62A); binding, microscale thermophoresis; 977 nM, room temperature, with: 50 nM labelled protein; higher = more binding).
`Cc1ccc(C2CC(=O)N2S(=O)(=O)c2cccc(Cl)c2)cc1` (stereo not drawn): IC50 “inactive” (Rhomboid protease AarA; substrate cleavage, inhibitor, gel-based).
`CN(C)c1ccc(C2=C/C(=C/C=C/c3sc4ccccc4[n+]3C)c3ccccc3O2)cc1` — result for binding: “binds” (T1, G-quadruplex RNA (Homo sapiens); fluorescence turn-on).
For `OC(O)(Cc1ccc(Cl)cc1)C(F)(F)F`, IC50 read “inactive” (Rhomboid protease AarA; enzyme activity, inhibitor, fluorogenic peptide substrate).
`CCCC[C@H](NC(=O)[C@H](CC(=O)O)NC(C)=O)C(=O)N[C@H](C(=O)N[C@@H](CC(=O)O)C(=O)COC(=O)c1c(C)cccc1C)[C@@H](C)OCc1ccccc1` has a kinact/KI of 45000 M⁻¹ s⁻¹ (CASP1; enzyme activity, inhibitor).
`C#CCCCCNC(=O)c1ccc(N(C(=O)C=C)c2ccc(Br)cc2)cc1` has a reactivity ratio of 1.85 (ABCC3 (Homo sapiens, UniProt O15438); mass spectrometry profiling; H460 cell lysate; 100 µM over 10 µM, UniProt O15438; relative to: high over low concentration).
For `COc1cc(C2C(NC(=O)c3ccc(NC(=O)OC(C)(C)C)cc3)(C(=O)O)C(c3ccc(OC(=O)c4cccs4)c(OC)c3)C2(NC(=O)c2ccc(NC(=O)OC(C)(C)C)cc2)C(=O)O)ccc1OC(=O)c1cccs1` (stereo not drawn), the Emax was 87.9 ± 4.55% (GLP1R (Homo sapiens, UniProt P43220, T298A); cAMP accumulation, agonist; receptor mutant; relative to: wild type).
For `O=C(NC[C@@H](Cc1ccc(F)cc1)N1CCC(O)(C(F)(F)F)CC1)C1(c2ccc(Cl)cc2)CCCC1`, activity read “inactive” (Trpa1 (Rattus norvegicus, UniProt Q6RI86, M949I); rat; dose not given).
`O=C(O)C1OC(Oc2cccc(-c3oc4ccccc4c(=O)c3O)c2)C(O)C(O)C1O` (stereo not drawn) gave a Vmax of 5120 ± 128 pmol/min/mg (UGT1A1 (Homo sapiens, UniProt P22309); glucuronidation; cell lysate).
`CN1C=C/C(=C\c2sc3ccccc3[n+]2CC(=O)NCCOCCOCCOCCNC(=O)CCCC[C@@H]2SC[C@@H]3NC(=O)N[C@@H]32)c2ccccc21`: “change in melting temperature” 3 °C (T2, Mango II RNA aptamer; UV melting).
With `CC(=O)N[C@H](C(=O)N[C@@H](CCC(=O)O)C(=O)N[C@@H](CO)C(=O)N[C@@H](CC(=O)O)C(=O)COC(=O)c1c(C)cccc1C)[C@@H](C)O` the kinact/KI was 5200 M⁻¹ s⁻¹ (CASP1; enzyme activity, inhibitor).
`CC1CN(S(=O)(=O)c2ccccc2)C1=O` (stereo not drawn) — result for IC50: “inactive” (Rhomboid protease AarA; enzyme activity, inhibitor, fluorogenic peptide substrate).
Under “probe labelling ratio”, `CCCCCC(O)/C=C/C=O` (stereo not drawn) is recorded as 0.68 (Hypoxanthine-guanine phosphoribosyltransferase (Homo sapiens, UniProt P00492); acylphosphate-ATP probe SILAC-ABPP, item: HPRT1; ZAK-transfected HEK293T; 100 µM, with: acylphosphate-ATP probe; relative to: DMSO over compound-treated).
With `CCCCOc1ccc(C(=O)OCC[N+]2(C)CC=CCC2)cc1` (stereo not drawn) the basal binding was 0.93 ± 0.05 fold (CHRM4 (Homo sapiens, UniProt P08173); membranes; 10 µM, 15 h, no carbachol; relative to: control).
With `CCOC(=O)c1c(NC(=O)c2nn3c(c2Cl)NC(c2cccs2)CC3C(F)(F)F)sc2c1CCC2` (stereo not drawn) the kon was 275 ± 324 M⁻¹ s⁻¹ (Heat shock protein HSP 90-alpha, N-terminal domain (HSP90AA1, Homo sapiens, UniProt P07900); SPR, two-state model; N-terminal domain).
Under “plasma membrane localization”, `CC(C=CC=C(C)C=CC1=C(C)CCCC1(C)C)=CC=O` is recorded as 0.97 (Rhodopsin (RHO, Homo sapiens, UniProt P08100, P23H); immunostaining, item: opsin; COS-7 transfected; 30.00 µM, unit not given; relative to: surface over total stained cells).
The selectivity ratio of `O[C@@H]1Cc2cccc(OCCF)c2C[C@H]1N1CCC(c2ccccc2)CC1` is reported as 360 (Vesicular acetylcholine transporter (Rattus norvegicus, UniProt Q62666); rat liver (sigma2); relative to: Ki sigma2 over Ki VAChT).
`CC(C)Oc1cc(Cl)ccc1CNc1cc(-c2ccccc2)nc2ncnn12` has a cAMP luminescence of 5780 a.u. and 1900 a.u. and 4690 a.u. and 1790 a.u. (GPR3 (Homo sapiens, UniProt P46089); cAMP reporter; human cells; 30 µM; higher is more cAMP).
With `CC[C@H](C)[C@H](NC(=O)[C@@H]1CCCN1C(=O)[C@H](CCCNC(=N)N)NC(=O)[C@@H]1CCCN1C(=O)[C@@H]1CCCN1C(=O)[C@@H](NC(=O)[C@@H]1CCCN1C(=O)[C@H](CCCNC(=N)N)NC(=O)[C@@H]1CCCN1C(=O)[C@H](CC(C)C)NC(=O)[C@H](Cc1ccc(O)cc1)NC(=O)[C@H](CO)NC(=O)CNC(=O)[C@H](CCCCN)NC(=O)[C@H](CC(=O)O)NC(=O)[C@@H](NC(=O)[C@H](CCCCN)NC(=O)c1ccc2c(c1)C(=O)OC21c2ccc(O)cc2Oc2cc(O)ccc21)C(C)C)[C@@H](C)O)C(=O)N[C@@H](Cc1ccc(O)cc1)C(=O)N[C@@H](CC(N)=O)C(=O)N[C@@H](CCCNC(=N)N)C(=O)N[C@@H](CC(N)=O)C(=O)NCC(=O)N1CCC[C@H]1C(=O)N[C@@H](CCCNC(=N)N)C(=O)N[C@@H](CCC(N)=O)C(=O)N[C@@H](CC1CCCCC1)C(=O)N[C@@H](CC(=O)O)C(=O)N[C@@H](CC(C)C)C(=O)N[C@@H](Cc1ccccc1)C(=O)O` the ΔH was -16.5 kcal/mol (Beta sliding clamp (Escherichia coli, UniProt P0A988); binding, ITC; 30 °C).
`C[Si](C)(C)C[C@@H](CN)CC(=O)O` has an inhibition of 0% (GABA transporter, rat; binding, radioligand binding; 75 µM, with: [3H]GABA).
`CC(C)[C@@H]1NC(=O)[C@H](Cc2ccccc2)NC(=O)CSC[C@@H](C(N)=O)NC(=O)[C@H](CCC(=O)O)NC(=O)[C@H](CO)NC(=O)[C@H](Cc2c[nH]c3cccc(Cl)c23)NC(=O)[C@H](C2CCCCC2)NC(=O)[C@H](C(C)C)NC(=O)[C@H](Cc2ccc(O)cc2)NC(=O)[C@H](CC(=O)O)NC(=O)[C@H](Cc2c[nH]c3ccccc23)NC(=O)[C@H](Cc2ccc(N)nc2)NC(=O)[C@H](Cc2c[nH]c3ccc(Cl)cc23)NC(=O)[C@H](CCC(=O)O)NC1=O` has a remaining activity of 103% (Interleukin-1 receptor-like 2 (IL1RL2, Homo sapiens, UniProt Q9HB29); reporter gene (SEAP), inhibitor, HEK-Blue IL-36R reporter; HEK-Blue IL-36R cells; 0.0017 µM, 6 h, with: IL-36γ 100 ng/mL).
For `COC(=O)[C@]1(C)C=C(C(=O)Nc2cccc(C(=O)Nc3ccc(Nc4nccc(-c5cccnc5)n4)c(C)c3)c2)C(=O)CC1`, the koff was 0.0535 s⁻¹ (MAPK8 (Homo sapiens, UniProt P45983, C116S); binding, SPR; 100, 300, 1000 nM, 1:1 binding model).
`[N-]=[N+]=N[C@]1(COP(=O)(O)OP(=O)(O)OP(=O)(O)O)O[C@@H](n2ccc(N)nc2=O)[C@@H](F)[C@@H]1O` has a Km of 0.05 µM (Gag-Pol polyprotein, reverse transcriptase (gag-pol, Human immunodeficiency virus type 1 group M subtype B, UniProt P04585); nucleotide incorporation, substrate; HIV-1; with: RNA template).
For `Cc1cccn2c(CNC(=O)CN3CCCN(C(=O)CN4CCCN(Cc5cccc6cnccc56)CC4)CC3)cnc12`, the Kd was greater than 40 µM (T3, ssRNA, hairpin with 1x1 G/G internal loops (Homo sapiens); BLI; read off a plot).
`CC(=O)N[C@@H](CCC(N)=O)C(=O)N[C@@H](CC(C)C)C(=O)N[C@@H](CCCC(=O)O)C(=O)N1CCC[C@H]1C(=O)N[C@@H](CC(=O)O)C(=O)COC(=O)c1c(C)cccc1C` has a kinact/KI of 834000 M⁻¹ s⁻¹ (CASP1; enzyme activity, inhibitor).
The inhibition of `C/C=C/C(=O)Nc1ccc2nc(NCCCCCN(C)C)nc(NCCCCCCN(C)C)c2c1` is reported as 5% (KMT5A (Homo sapiens, UniProt Q9NQR1); enzyme activity, inhibitor, radiometric; 50 µM).

A few entries again:
With `CCCCOc1ccc(C(=O)OCC[N+]2(C)CC=CCC2)cc1` (stereo not drawn) the basal binding was 0.93 ± 0.05 fold (CHRM4 (Homo sapiens, UniProt P08173); membranes; 10 µM, 15 h, no carbachol; relative to: control).
